Assay results from different studies.
Parts stem from different laboratories: compare values within a part only. Several values in a cell are separate wells, animals, samples, runs or records.
UniProt O15264, sequence (whole entry, looked up): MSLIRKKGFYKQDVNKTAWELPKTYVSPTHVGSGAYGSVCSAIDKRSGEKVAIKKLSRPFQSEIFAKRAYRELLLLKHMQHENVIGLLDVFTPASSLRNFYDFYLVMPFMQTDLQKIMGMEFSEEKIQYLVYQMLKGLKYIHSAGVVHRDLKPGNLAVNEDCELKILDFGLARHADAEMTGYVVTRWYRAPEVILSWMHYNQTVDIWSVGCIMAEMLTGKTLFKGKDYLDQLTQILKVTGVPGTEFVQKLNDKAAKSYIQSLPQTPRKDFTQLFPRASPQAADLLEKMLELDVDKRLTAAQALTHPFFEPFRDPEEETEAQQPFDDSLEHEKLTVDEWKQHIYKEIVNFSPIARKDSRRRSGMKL
UniProt Q9NQU5, sequence (whole entry, looked up): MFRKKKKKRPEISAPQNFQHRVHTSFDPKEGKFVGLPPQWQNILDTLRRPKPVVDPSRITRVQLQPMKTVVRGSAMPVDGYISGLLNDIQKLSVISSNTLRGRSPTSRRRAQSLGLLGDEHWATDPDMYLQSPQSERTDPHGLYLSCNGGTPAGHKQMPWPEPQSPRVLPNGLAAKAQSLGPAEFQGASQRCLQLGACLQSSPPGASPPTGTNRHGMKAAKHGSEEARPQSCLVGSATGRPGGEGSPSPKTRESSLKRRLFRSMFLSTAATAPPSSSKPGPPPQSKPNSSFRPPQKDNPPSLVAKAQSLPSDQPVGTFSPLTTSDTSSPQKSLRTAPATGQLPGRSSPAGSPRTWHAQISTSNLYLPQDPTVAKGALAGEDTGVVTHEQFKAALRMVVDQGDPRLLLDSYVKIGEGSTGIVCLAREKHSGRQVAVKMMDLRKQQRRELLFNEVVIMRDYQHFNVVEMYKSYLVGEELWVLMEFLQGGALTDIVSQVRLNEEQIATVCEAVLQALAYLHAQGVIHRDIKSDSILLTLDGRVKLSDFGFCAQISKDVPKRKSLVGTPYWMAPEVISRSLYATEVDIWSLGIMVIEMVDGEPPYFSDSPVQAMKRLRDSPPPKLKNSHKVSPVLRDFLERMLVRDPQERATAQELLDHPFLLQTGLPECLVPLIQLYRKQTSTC
UniProt Q15418, sequence (whole entry, looked up): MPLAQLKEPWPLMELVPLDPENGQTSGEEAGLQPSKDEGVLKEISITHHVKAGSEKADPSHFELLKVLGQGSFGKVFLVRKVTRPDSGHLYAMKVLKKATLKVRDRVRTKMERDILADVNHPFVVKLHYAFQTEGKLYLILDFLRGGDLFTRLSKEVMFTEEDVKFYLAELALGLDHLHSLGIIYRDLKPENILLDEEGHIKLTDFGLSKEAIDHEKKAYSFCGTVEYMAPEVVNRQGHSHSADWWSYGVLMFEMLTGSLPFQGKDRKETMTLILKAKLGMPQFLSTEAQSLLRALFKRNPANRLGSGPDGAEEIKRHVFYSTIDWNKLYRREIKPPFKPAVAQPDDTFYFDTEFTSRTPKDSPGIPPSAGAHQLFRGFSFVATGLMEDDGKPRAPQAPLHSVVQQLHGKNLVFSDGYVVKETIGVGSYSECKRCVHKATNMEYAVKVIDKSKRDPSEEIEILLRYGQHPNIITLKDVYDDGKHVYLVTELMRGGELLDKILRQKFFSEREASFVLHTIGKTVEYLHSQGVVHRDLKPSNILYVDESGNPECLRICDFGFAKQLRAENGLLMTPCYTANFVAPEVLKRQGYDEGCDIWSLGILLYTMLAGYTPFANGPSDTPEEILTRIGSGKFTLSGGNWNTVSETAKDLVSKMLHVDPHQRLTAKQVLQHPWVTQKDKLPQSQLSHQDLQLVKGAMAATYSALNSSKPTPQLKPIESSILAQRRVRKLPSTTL

Series 1 — method: protein binding microarray; molecule type: double-stranded DNA, one strand shown; sample: in vitro; concentration: not given; baseline: not given; direction: higher = stronger binding
Target: Histone acetyltransferase KAT6A, winged helix 1, GST fusion (KAT6A, Homo sapiens, UniProt Q92794, residues 1-85)
Notes: 8-mer, flanks averaged, mean of 2 arrays, mostly near background
Target sequence (chain): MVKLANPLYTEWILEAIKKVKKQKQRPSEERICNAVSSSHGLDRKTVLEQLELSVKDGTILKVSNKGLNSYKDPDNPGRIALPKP
For `CCGGTCGC`, the E-score was 0.297.
`ATCTATTA` has an E-score of -0.141.
`AATTGTAA` gave an E-score of 0.0141.
With `CAGGGAAC` the E-score was -0.218.
The E-score of `CGCTGCTC` is reported as 0.0454.
With `CATTCCTC` the E-score was -0.152.
With `CAACTGAG` the E-score was -0.097.
`ATAGCTTG` has an E-score of -0.214.

Series 2 — effect on: enzyme activity; action: inhibitor; concentration: 0.5 µM; baseline: control
Target: Serine/threonine-protein kinase NLK (NLK, Homo sapiens, UniProt Q9UBE8)
Construct (Q9UBE8 1-527): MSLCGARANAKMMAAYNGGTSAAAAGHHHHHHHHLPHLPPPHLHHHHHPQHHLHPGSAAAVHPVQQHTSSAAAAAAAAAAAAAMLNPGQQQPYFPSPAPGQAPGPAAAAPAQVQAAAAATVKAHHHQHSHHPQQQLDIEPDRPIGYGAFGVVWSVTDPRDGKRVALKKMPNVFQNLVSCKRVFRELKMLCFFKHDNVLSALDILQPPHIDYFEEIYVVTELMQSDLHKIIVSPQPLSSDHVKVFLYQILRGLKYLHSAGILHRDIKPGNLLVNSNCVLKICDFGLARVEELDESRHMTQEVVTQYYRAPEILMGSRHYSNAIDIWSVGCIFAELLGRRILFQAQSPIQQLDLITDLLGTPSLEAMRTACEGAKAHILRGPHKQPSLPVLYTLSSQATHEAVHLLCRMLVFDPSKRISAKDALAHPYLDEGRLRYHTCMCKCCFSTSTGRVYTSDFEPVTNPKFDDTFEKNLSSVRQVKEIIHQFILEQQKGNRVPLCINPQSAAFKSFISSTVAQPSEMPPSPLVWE
For Cc1nc2cc3nc(-c4cccs4)cnc3cc2n1C, the remaining activity was 105%.
O=C(NC(NC(=S)Nc1ccc(F)c([N+](=O)[O-])c1)C(Cl)(Cl)Cl)C(c1ccccc1)c1ccccc1 (stereo not drawn) has a remaining activity of 106%.
O=c1cc(-c2cccc3c2Sc2ccccc2S3)oc(N2CCOCC2)c1 gave a remaining activity of 108%.
Cc1cn(-c2cc(NC(=O)c3ccc(C)c(Nc4nccc(-c5cccnc5)n4)c3)cc(C(F)(F)F)c2)cn1 gave a remaining activity of 105%.
c1ccc(-c2[nH]ncc2-c2ccnc3ccccc23)nc1 gave a remaining activity of 79.8%.
With C[C@@H]1CCN(C(=O)CC#N)C[C@@H]1N(C)c1ncnc2[nH]ccc12 the remaining activity was 110%.
CN(C)C[C@H]1CCn2c(c(C3=C(c4cn(C)c5ccccc45)C(=O)NC3=O)c3ccccc32)C1 has a remaining activity of 101%.
With CCN(CC)C(=O)c1ccc(Nc2nc(OCC3CCCCC3)c3[nH]cnc3n2)cc1 the remaining activity was 94.5%.
With COc1cc2c(cc1OC)-c1[nH]nc(Nc3cccc(F)c3)c1C2 the remaining activity was 74.1%.
The remaining activity of CCN(CC)CCNC(=O)c1c(C)[nH]c(/C=C2\C(=O)Nc3ccc(F)cc32)c1C is reported as 105%.
O=C1c2ccccc2-c2n[nH]c3cccc1c23 has a remaining activity of 96.1%.
Nc1cccc(-c2cc3c(Oc4cccc(O)c4)ncnc3[nH]2)c1 gave a remaining activity of 87.7%.

Series 3 — effect on: cell-free assay; method: competition with immobilised ligand; concentration: 1 µM
SMILES: O=S(=O)(NC1CCC(c2cc(F)ccc2F)(S(=O)(=O)c2ccc(Cl)cc2)CC1)C(F)(F)F (stereo not drawn)
For PAK6 (Homo sapiens, UniProt Q9NQU5): remaining binding read 100%.
MAPK13 (Homo sapiens, UniProt O15264) — remaining binding: 100%.
For Ribosomal protein S6 kinase alpha-1, C-terminal kinase domain (RPS6KA1, Homo sapiens, UniProt Q15418): remaining binding read 100%.

Mixed results
CC(=O)N[C@@H](Cc1c[nH]c2ccccc12)C(=O)N[C@@H](CCC(=O)C=[N+]=[N-])C(=O)OC(C)C has a body weight of 96.3% and 100% and 96.2% and 102% and 108% and 99.7% (C57BL/6 CES1-/- mice, MC-38 tumour; dose not given, day 49 after inoculation, added: anti-PD-1; baseline: initial).
